{"data": "Measured values pooled from the literature", "cell line": "A549", "note": "Lines come from different studies, so protocols differ. ± marks the error that the study gave."}
{"SMILES": "CC(C=NNC(N)=S)=NNC(N)=S", "test": "cell viability, MTT", "setting": "24 h hypoxic, 48 h normoxic, hypoxic treatment", "IC50": "0.09 ± 0.03 µM"}
{"SMILES": "O=[N+]([O-])c1ccc(-n2nc(-c3cccs3)sc2=NN=Cc2ccccc2)cc1", "test": "cell growth or viability", "IC50": "11.6 µM"}
{"SMILES": "Brc1ccc2nc(/C=C/c3ccc4ccccc4c3)c(/C=C/c3ccc4ccccc4c3)nc2c1", "test": "cell growth or viability, MTT", "setting": "72 h", "IC50": "> 100 µM"}
{"SMILES": "C/C(=N/NC(=O)c1cn(-c2ccccc2)nc1-c1ccc(C)cc1)c1c(O)cc(C)oc1=O", "test": "cell growth or viability, MTT", "setting": "48 h", "IC50": "97 µM"}
{"SMILES": "Nc1nc(-c2cccc(NC(=O)c3cc4cc(Cl)ccc4[nH]3)c2)c(C(=O)c2ccccc2)[nH]1", "test": "cell viability, resazurin", "setting": "72 h", "IC50": "15.1 µM"}
{"SMILES": "O=[N+]([O-])c1cccc(/C=C/c2nc3ccc([N+](=O)[O-])cc3nc2/C=C/c2cccc([N+](=O)[O-])c2)c1", "test": "cell growth or viability, MTT", "setting": "72 h", "IC50": "> 100 µM"}
{"SMILES": "CCCCCCOC(C)c1c(C)c2cc3nc(c4c5[nH]c(cc6nc(cc1[nH]2)C(C)=C6CC)c(C)c5C(=O)C4)[C@@H](CCC(=O)O)[C@@H]3C (some centres unmarked)", "test": "cell growth or viability", "setting": "72 h, dark", "IC50": "> 90 µM"}
{"SMILES": "Cc1cc(C)c(C2C3CCCN3C3(C(=O)Nc4ccccc43)C2C(=O)c2cccc(Cl)c2)c(C)c1 (centres unmarked)", "test": "cell growth or viability, MTT", "setting": "24 h", "IC50": "16.9 µM"}
{"SMILES": "CC(C=NN=C(N)[S-])=NN=C(N)[S-].NCc1ccccc1.NCc1ccccc1.O=[N+]([O-])[O-].[Co+3]", "test": "cell viability, MTT", "setting": "24 h hypoxic, 48 h normoxic, hypoxic treatment", "IC50": "~27 µM"}
{"SMILES": "Cc1cc(C)c(C2CN(C)C3(C(=O)Nc4ccccc43)C2C(=O)c2cccc(Cl)c2)c(C)c1 (centres unmarked)", "test": "cell growth or viability, MTT", "setting": "48 h", "IC50": "> 100 µM"}
{"SMILES": "O=[N+]([O-])c1ccc2nc(/C=C/c3ccccc3)c(/C=C/c3ccccc3)nc2c1", "test": "cell growth or viability, MTT", "setting": "72 h", "IC50": "> 100 µM"}
{"SMILES": "O=C(Cn1cc(COc2ncnc3[nH]cnc23)nn1)Nc1ccc([N+](=O)[O-])cc1", "test": "cell growth or viability, MTT", "IC50": "> 100 µM"}
{"SMILES": "Nc1nc(-c2cc(Cl)cc(NC(=O)c3cc4cc(Br)ccc4[nH]3)c2)c(C(=O)c2ccccc2)[nH]1", "test": "cell growth or viability, resazurin", "setting": "72 h", "IC50": "17.8 µM"}
{"SMILES": "COc1ccc(/C=C/c2nc3ccc(Br)cc3nc2/C=C/c2ccc(OC)cc2)cc1", "test": "cell growth or viability, MTT", "setting": "72 h", "IC50": "38.2 µM"}
{"SMILES": "C=CC1=C(C)c2cc3[nH]c(cc4nc(cc5[nH]c(cc1n2)c(C)c5CCC(=O)O)C(CCC(=O)O)=C4C)c(C)c3C=C", "test": "cell viability, resazurin", "setting": "48 h, together with: 510 nm light 2.44 J/cm2 for 10 min", "IC50": "0.45 ± 0.06 µM"}
{"SMILES": "Cc1ccc(C(=O)C2C(c3c(C)cc(C)cc3C)C3CCCN3C23C(=O)Nc2ccccc23)cc1 (centres unmarked)", "test": "cell growth or viability, MTT", "IC50": "< 10 µM"}
{"SMILES": "C=CCc1ccc(O)c(-c2ccc(O)c(CC=C)c2)c1", "test": "cell proliferation, MTS", "setting": "72 h, together with: temozolomide 250 µM", "IC50": "79.4 µM"}
{"SMILES": "CC(=O)OC[C@H]1O[C@@H]([S-])[C@H](OC(C)=O)[C@@H](OC(C)=O)[C@@H]1OC(C)=O.CCP(CC)CC.[Au+]", "test": "cell growth or viability, crystal violet", "setting": "72 h", "IC50": "4.2 µM"}
{"SMILES": "O=[N+]([O-])c1ccc2nc(/C=C/c3cccc(Cl)c3)c(/C=C/c3cccc(Cl)c3)nc2c1", "test": "cell growth or viability, MTT", "setting": "72 h", "IC50": "75 µM"}
{"SMILES": "O=Cc1cccc(NC(=O)Cn2cc(COc3ncnc4[nH]cnc34)nn2)c1", "test": "cell growth or viability, MTT", "IC50": "13.9 µM"}
{"SMILES": "Nc1nc(-c2ccc(NC(=O)c3cc4cc(Br)ccc4[nH]3)cc2)c(C(=O)c2ccccc2)[nH]1", "test": "cell growth or viability, resazurin", "setting": "72 h", "IC50": "14.2 µM"}
{"SMILES": "O=[N+]([O-])c1ccc2nc(/C=C/c3cccs3)c(/C=C/c3cccs3)nc2c1", "test": "cell growth or viability, MTT", "setting": "72 h", "IC50": "> 100 µM"}
{"SMILES": "CCN(CC)CC1CCN(c2ncc3ncnc(Nc4ccc(F)c(Cl)c4)c3n2)CC1", "test": "cell growth or viability, resazurin", "setting": "5 days", "IC50": "3.7 µM"}
{"SMILES": "CC(=O)c1[nH]c(N)nc1-c1cccc(NC(=O)c2cc3cc(F)ccc3[nH]2)c1", "test": "cell growth or viability, resazurin", "setting": "72 h", "IC50": "43.7 µM"}
{"SMILES": "O=[N+]([O-])c1ccc(-n2nc(-c3cccs3)sc2=NN=Cc2cn(-c3ccccc3)nc2-c2ccccc2)cc1", "test": "cell growth or viability", "IC50": "30.6 µM"}
{"SMILES": "Brc1ccc(/C=C/c2nc3ccc(Br)cc3nc2/C=C/c2ccc(Br)cc2)cc1", "test": "cell growth or viability, MTT", "setting": "72 h", "IC50": "> 100 µM"}
{"SMILES": "CC(C(=O)[O-])C(=O)[O-].CC(C(=O)[O-])C(=O)[O-].NCCN.[Pt+4]", "test": "cell viability, MTT", "setting": "96 h", "IC50": "> 200 µM"}
{"SMILES": "CNC(=O)c1c(C)oc2cc(Oc3ncnc4cc(OC)c(OC)cc34)ccc12", "test": "cell growth or viability, CCK-8", "setting": "48 h", "IC50": "> 20 µM"}
{"SMILES": "Cc1cc(C)c(C2CN(C)C3(C(=O)Nc4ccccc43)C2C(=O)c2ccc(Br)cc2)c(C)c1 (centres unmarked)", "test": "cell growth or viability, MTT", "setting": "48 h", "IC50": "14.5 µM"}
{"SMILES": "CCN1CCC2(CC1)C/C(=N\\N=C\\c1ccc(N(C)C)cc1)c1ccccc1O2", "test": "cell growth or viability, MTT", "setting": "48 h", "IC50": "48.5 µM"}
{"SMILES": "N.N.O=C([O-])C1(C(=O)[O-])CCC1.[Pt+2]", "test": "cell viability, MTT", "setting": "4 h, together with: cimetidine 3 mmol/L", "IC50": "164 ± 16.5 µM"}
{"SMILES": "Clc1cccc(/C=C/c2nc3ccc(Br)cc3nc2/C=C/c2cccc(Cl)c2)c1", "test": "cell growth or viability, MTT", "setting": "72 h", "IC50": "42.4 µM"}
{"SMILES": "Cc1cc(C)c(C2CN(C)C3(C(=O)Nc4ccccc43)C2C(=O)c2ccc(F)cc2)c(C)c1 (centres unmarked)", "test": "cell growth or viability, MTT", "IC50": "< 10 µM"}
{"SMILES": "CCOC(=O)c1ccc2c(c1)n(CC)c[n+]2CC", "test": "cell growth or viability, crystal violet", "setting": "72 h", "IC50": "50.8 µM"}
{"SMILES": "O=C(Cn1cc(COc2ncnc3[nH]cnc23)nn1)Nc1ccc(F)c(Cl)c1", "test": "cell growth or viability, MTT", "IC50": "4.02 µM"}
{"SMILES": "Cc1cc(C)c(C2C3CCCN3C3(C(=O)Nc4ccccc43)C2C(=O)c2ccc(F)cc2)c(C)c1 (centres unmarked)", "test": "cell growth or viability, MTT", "setting": "24 h", "IC50": "64.4 µM"}
{"SMILES": "CC1COc2c(N3CCN(C)CC3)c(F)cc3c(=O)c(C(=O)[O-])cn1c23.Cc1ccc(C(C)C)cc1.[Cl-].[Ru+2] (centres unmarked)", "test": "cell growth or viability, MTT", "setting": "96 h", "IC50": "> 320 µM"}
{"SMILES": "Cc1cccc(C(=O)C2C(c3c(C)cc(C)cc3C)CN(C)C23C(=O)Nc2ccccc23)c1 (centres unmarked)", "test": "cell growth or viability, MTT", "IC50": "< 10 µM"}
{"SMILES": "CC(=NN=C(N)[S-])C(C)=NN=C(N)[S-].NCc1ccccc1.NCc1ccccc1.O=[N+]([O-])[O-].[Co+3]", "test": "cell viability, MTT", "setting": "24 h then 48 h recovery, normoxia", "IC50": "> 500 µM"}
{"SMILES": "CN1CCC2(CC1)C/C(=N\\N=C\\c1ccc(O)cc1)c1ccccc1O2", "test": "cell growth or viability, MTT", "setting": "48 h", "IC50": "23.2 µM"}
{"SMILES": "Cc1ccc(C(=O)C2C(c3c(C)cc(C)cc3C)CN(C)C23C(=O)Nc2ccccc23)cc1 (centres unmarked)", "test": "cell growth or viability, MTT", "setting": "24 h", "IC50": "6.93 µM"}
{"note": "For quick reference, copied from above:"}
{"SMILES": "O=Cc1cccc(NC(=O)Cn2cc(COc3ncnc4[nH]cnc34)nn2)c1", "test": "cell growth or viability, MTT", "IC50": "13.9 µM"}
{"SMILES": "O=[N+]([O-])c1cccc(/C=C/c2nc3ccc([N+](=O)[O-])cc3nc2/C=C/c2cccc([N+](=O)[O-])c2)c1", "test": "cell growth or viability, MTT", "setting": "72 h", "IC50": "> 100 µM"}
{"SMILES": "CC(=NN=C(N)[S-])C(C)=NN=C(N)[S-].NCc1ccccc1.NCc1ccccc1.O=[N+]([O-])[O-].[Co+3]", "test": "cell viability, MTT", "setting": "24 h then 48 h recovery, normoxia", "IC50": "> 500 µM"}
{"SMILES": "CC(=O)OC[C@H]1O[C@@H]([S-])[C@H](OC(C)=O)[C@@H](OC(C)=O)[C@@H]1OC(C)=O.CCP(CC)CC.[Au+]", "test": "cell growth or viability, crystal violet", "setting": "72 h", "IC50": "4.2 µM"}
